{"data": "Results of several laboratories", "note": "Numbered parts are unrelated; each lists some results of a single study."}
{"data": "Block 1", "target": "Interferon regulatory factor 7, full length, phosphomimetic (IRF7, Homo sapiens, UniProt Q92985, residues 1-503, S471D/S472D/S475D/S476D/S477D/S483D/S484D/S487D)", "method": "protein-binding microarray", "molecule type": "double-stranded DNA, one strand shown", "sample": "in vitro", "concentration": "2200 nM top", "setting": "60-bp whole probe", "together with": "salmon DNA 0.4 mg/ml", "reference": "random background probes", "direction": "higher = stronger binding", "shared flanks, not repeated": "GCCTAGCAC … GTCTTGATTCGCTTGACGCTGCTG", "sequence of UniProt Q92985 (whole entry, unmodified, looked up)": "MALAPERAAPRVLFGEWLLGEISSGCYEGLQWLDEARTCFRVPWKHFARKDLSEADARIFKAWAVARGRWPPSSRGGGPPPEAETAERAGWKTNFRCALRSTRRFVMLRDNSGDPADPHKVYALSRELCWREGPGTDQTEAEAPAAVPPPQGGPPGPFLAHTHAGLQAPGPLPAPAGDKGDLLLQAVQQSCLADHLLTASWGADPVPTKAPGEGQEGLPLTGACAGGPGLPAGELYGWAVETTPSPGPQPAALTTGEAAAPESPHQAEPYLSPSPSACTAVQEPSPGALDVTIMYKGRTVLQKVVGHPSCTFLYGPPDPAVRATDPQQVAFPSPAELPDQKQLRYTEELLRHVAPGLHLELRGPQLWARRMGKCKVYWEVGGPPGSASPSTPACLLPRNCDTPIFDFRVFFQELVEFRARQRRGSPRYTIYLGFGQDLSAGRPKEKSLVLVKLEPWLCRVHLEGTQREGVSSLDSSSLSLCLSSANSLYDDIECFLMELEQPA"}
{"Sequence": "TTTTCTCTCCCATTCTGAATGTGCTAG", "fitted relative affinity [z-score]": 3}
{"Sequence": "TTAGATTTCCGGACTGGATTAGTGCTA", "fitted relative affinity [z-score]": 0.282}
{"Sequence": "TCAATTTTTTTTTTCTAACTGTGCTAG", "fitted relative affinity [z-score]": 1.21}
{"Sequence": "GAGGATCTCAGTTTCGAGACGTGCTAG", "fitted relative affinity [z-score]": 3.28}
{"Sequence": "GACGAACTGGGGTATCGAGAAGTGCTA", "fitted relative affinity [z-score]": -0.0646}
{"Sequence": "GGTTTTCTCTGGTTCTTGCTGTGCTAG", "fitted relative affinity [z-score]": 2.33}
{"Sequence": "TCAGGTTTCTATATTTGACTGTGCTAG", "fitted relative affinity [z-score]": 1.92}
{"Sequence": "GACGATTTCAGACTGGAGAGGTGCTAG", "fitted relative affinity [z-score]": 0.128}
{"Sequence": "TTAGGTATCGGTCTCAGTTAGTGCTAG", "fitted relative affinity [z-score]": 0.927}
{"Sequence": "GACGGACTTGGGACTGGGGACGTGCTA", "fitted relative affinity [z-score]": -0.95}
{"Sequence": "TTAGATATCGGGACAGGATTAGTGCTA", "fitted relative affinity [z-score]": -0.472}
{"Sequence": "GACAGTATCCTTTTCCTGACGTGCTAG", "fitted relative affinity [z-score]": 1.78}
{"Sequence": "GACGTTATCGGTATCGGGACGTGCTAG", "fitted relative affinity [z-score]": 0.753}
{"Sequence": "TTAGGTTTCGGTCTCGGTGAGTGCTAG", "fitted relative affinity [z-score]": 6.67}
{"Sequence": "GACGGTTTGCTACTGCTGACGTGCTAG", "fitted relative affinity [z-score]": 0.924}
{"Sequence": "TCAGAAATTCCTCTGAAACTGTGCTAG", "fitted relative affinity [z-score]": -0.0993}
{"Sequence": "TTAGATTTCAGCCTGGATTAGTGCTAG", "fitted relative affinity [z-score]": -0.0327}
{"Sequence": "CATGAACTGTTTCTTGAAAAGTGCTAG", "fitted relative affinity [z-score]": 0.27}
{"Sequence": "GACGATTTGAGACTGGAGACGTGCTAG", "fitted relative affinity [z-score]": 0.086}
{"Sequence": "CCTCACATGACTGAATGGACGTGCTAG", "fitted relative affinity [z-score]": 0.502}
{"Sequence": "TTAGGACTGTACACTGGGTTAGTGCTA", "fitted relative affinity [z-score]": -0.163}
{"Sequence": "TTAGGACTGCTTTTCCTTCAGTGCTAG", "fitted relative affinity [z-score]": 1.22}
{"Sequence": "GGTCCAACAAACAGATCCATGTGCTAG", "fitted relative affinity [z-score]": 0.354}
{"data": "Block 2", "target": "Ras GTPase-activating protein-binding protein 1, RRM domain (G3BP1, Homo sapiens, UniProt Q13283)", "method": "RNA Bind-n-Seq", "molecule type": "RNA", "sample": "in vitro", "concentration": "1 µM", "setting": "whole 134-nt RNA, ends assumed", "together with": "150 mM KCl", "reference": "input library", "direction": "higher = stronger binding", "shared flanks, not repeated": "GGGAGUUCUACAGUCCGACGAUC … UGGAAUUCUCGGGUGUCAAGG", "sequence of UniProt Q13283 (whole entry, looked up)": "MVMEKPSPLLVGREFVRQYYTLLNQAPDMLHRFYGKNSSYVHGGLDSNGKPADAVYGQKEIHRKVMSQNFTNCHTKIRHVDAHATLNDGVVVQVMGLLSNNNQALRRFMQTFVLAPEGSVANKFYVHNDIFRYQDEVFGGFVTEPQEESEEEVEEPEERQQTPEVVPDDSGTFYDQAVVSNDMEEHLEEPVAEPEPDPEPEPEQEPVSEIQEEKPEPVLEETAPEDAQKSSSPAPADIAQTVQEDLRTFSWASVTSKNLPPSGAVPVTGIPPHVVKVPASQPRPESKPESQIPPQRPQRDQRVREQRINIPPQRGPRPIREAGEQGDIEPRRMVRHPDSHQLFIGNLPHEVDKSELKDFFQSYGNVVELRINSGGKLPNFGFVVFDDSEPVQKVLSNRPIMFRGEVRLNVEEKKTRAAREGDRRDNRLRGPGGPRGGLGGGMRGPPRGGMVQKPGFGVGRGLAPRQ"}
{"Sequence": "UCCUGUGCUACACAUCGUAUGUACCGAAUCGGUUUUUUGGGGUUUUUUGGUUUUUUGGGAAAGUAUUAUGUUACGCCGUUCGGAUCUGCA", "log2 enrichment": -0.138}
{"Sequence": "CAAGUCCUGUGCUACACAUCGUAUGUACCGAAUCGGGUUUGGGUUUGGUUUGGGGAAAGUAUUAUGUUACGCCGUUCGGAUCUGCACUUC", "log2 enrichment": -0.108}
{"Sequence": "UGGCCCUGAUGGCAUGCGGGGAGGAAGAGGUGGCCUCAUGGAUCGUGGUGGUCCCGGUGGAAUGUUCAGAGGUGGCCGUGGUGGAGACAG", "log2 enrichment": 0.991}
{"Sequence": "GCAGGAAGUAAAAACAAAUGGAAAUGCGUCGGAUAGUGGCAGGGGUGGGGGUUGCUAAGGAAAGGGUGGGAUGGGAGUGGGUAAAGAGUU", "log2 enrichment": 1.13}
{"Sequence": "ACCAUGCAGGUGGGCAUCUUUGGGAAGUGGGGCAAGGGGGGGAUAGGGAGGGGGGUAACACUUUGGGAACAGGUGGUCCCAGGGCGUUUC", "log2 enrichment": 1}
{"Sequence": "CCUGUGCUACACAUCGUAUGUACCGAAUCGGGGUUUUUGGGGUUUUUUUGGGGAAAGGGGAAAGUAUUAUGUUACGCCGUUCGGAUCUGC", "log2 enrichment": 0.691}
{"Sequence": "UGGCCCUGGUGGCAUGCGGGGAGGAAGAGGUGGCCUCAUGGAUCGUGGUGGUCCCGGUGGAAUGUUCAGAGGUGGCCGUGGUGGGGACAG", "log2 enrichment": 1.85}
{"Sequence": "GCAGGAAGUAAAAACAAAUGGAAAUGCUUCGGAUAGUGGCAGGGGUGAAAGUUGCUAAGGAAAGGGUGGGAUGGGAGUGGGUAAAGAGUU", "log2 enrichment": 1.36}
{"Sequence": "CCUGUGCUACACAUCGUAUGUACCGAAUCGGAAAAAAAGGGGAAAAAAAGGAAAAAAAGGAAAGUAUUAUGUUACGCCGUUCGGAUCUGC", "log2 enrichment": 0.147}
{"Sequence": "CCUCAAGUCCUGUGCUACACAUCGUAUGUACCGAAUCGGGAGGGGAGGAGGGAAAGUAUUAUGUUACGCCGUUCGGAUCUGCACUUCCAG", "log2 enrichment": -0.0737}
{"data": "Block 3", "target": "Histone acetyltransferase KAT6A, winged helix 1, GST fusion (KAT6A, Homo sapiens, UniProt Q92794, residues 1-85)", "method": "protein binding microarray", "molecule type": "double-stranded DNA, one strand shown", "sample": "in vitro", "concentration": "not given", "setting": "8-mer, flanks averaged, mean of 2 arrays, mostly near background", "reference": "not given", "direction": "higher = stronger binding", "Target sequence (chain)": "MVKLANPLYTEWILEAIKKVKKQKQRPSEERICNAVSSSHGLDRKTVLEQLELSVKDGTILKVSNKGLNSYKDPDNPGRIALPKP"}
{"Sequence": "ATCACGGG", "E-score": 0.186}
{"Sequence": "CGGTTCAA", "E-score": 0.183}
{"Sequence": "ATTGGGAC", "E-score": -0.261}
{"Sequence": "GTCCGAAC", "E-score": 0.175}
{"Sequence": "CCCATAGC", "E-score": -0.0378}
{"Sequence": "CAGTGCCG", "E-score": 0.3}
{"Sequence": "AGTTAACT", "E-score": 0.205}
{"Sequence": "ATCGTTAA", "E-score": -0.0475}
{"Sequence": "AAGGTCCA", "E-score": -0.172}
{"Sequence": "GATATGCC", "E-score": 0.0416}
{"Sequence": "GAAGACCA", "E-score": -0.121}
{"Sequence": "CAGGACGC", "E-score": 0.0641}
{"Sequence": "AGGGCGAC", "E-score": 0.152}
{"Sequence": "ATCATAAC", "E-score": -0.0338}
{"Sequence": "CCTGGCCG", "E-score": 0.0916}
{"Sequence": "CCAAACCG", "E-score": 0.15}
{"Sequence": "GAAGCACA", "E-score": -0.262}
{"Sequence": "CTAGTTTA", "E-score": 0.0532}
{"Sequence": "ACTAATCC", "E-score": 0.088}
{"Sequence": "ACCTATTG", "E-score": -0.048}
{"Sequence": "ACAGCGGA", "E-score": 0.076}
{"Sequence": "AGATTGCG", "E-score": 0.0859}
{"Sequence": "TAGAACCA", "E-score": -0.202}
{"Sequence": "GAACCGCA", "E-score": 0.117}
{"Sequence": "GGTTACGA", "E-score": 0.193}
{"data": "Block 4", "target": "RING finger protein unkempt homolog, zinc fingers 1-6, GST-SBP tag (UNK, Homo sapiens, UniProt Q9C0B0, residues 30-357)", "method": "RNA Bind-n-Seq", "molecule type": "RNA", "sample": "in vitro", "concentration": "not given", "setting": "RNA with constant flanks, human-mouse chimeric sites, ends assumed", "reference": "input RNA pool", "direction": "higher = stronger binding", "shared flanks, not repeated": "GGGAGUUCUACAGUCCGACGAUC … CAACAGAGGAUUGAGCAUCA", "sequence of UniProt Q9C0B0 (30-357, looked up)": "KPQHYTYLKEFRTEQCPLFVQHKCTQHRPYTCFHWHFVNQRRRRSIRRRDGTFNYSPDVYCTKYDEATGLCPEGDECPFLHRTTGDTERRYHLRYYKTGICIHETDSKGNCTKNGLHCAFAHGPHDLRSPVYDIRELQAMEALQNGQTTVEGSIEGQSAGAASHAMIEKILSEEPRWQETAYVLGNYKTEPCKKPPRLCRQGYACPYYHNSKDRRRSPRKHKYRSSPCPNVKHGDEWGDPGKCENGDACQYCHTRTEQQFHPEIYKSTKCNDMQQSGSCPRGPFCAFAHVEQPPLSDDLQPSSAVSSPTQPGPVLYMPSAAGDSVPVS"}
{"Sequence": "AAAGAGUGGAUAGAGUGUGCACACGGGAUCGGUUAUACCCGGGCGAAAAAGGAGUGCAAGAUAGAGUUCGAUGACUUCGAAGAGUGCUUGCUUCGGUAGAAAACGAUGAGGCGAAUGCAU", "bound/input enrichment": "0.571 ratio"}
{"Sequence": "UAAAUUAGGGCUGCCGUCCGUUCUCACUCCCUGGGCUGCGGAAAGCCAGAAGAUUUUAUCUAGCUUAAACCAGGCUGCUGGUGUUCCCUCUUUUUUUCCACGAGGGUGUUUUUGGCUGCA", "bound/input enrichment": "0.359 ratio"}
{"Sequence": "GUGACUGGUGUUAAGAUUUACCCUCAGCAAAGAAGUGCAGUAGUCACCAUAAUUCCAUCUGUGGUGAAUGCCAAUCAGAUUGUGGAGCUGGUCCCAGACCUCAGUUUAGACAUGGGAACU", "bound/input enrichment": "0.291 ratio"}
{"Sequence": "CCCUCCCCGGGCCACCCGCCCGCCCAAGCUCCCCGCCGAGAUCCAGGUUUCUUCUUAUUUCAUAGCAAGCCAGAACAAUGUUCUACGCACAUUUUGUCCUCAGUAAACGAGGGCCUCUGG", "bound/input enrichment": "4.57 ratio"}
{"Sequence": "GUGUCCUGCUUUCAACUUAAAUCACUGAGGCAUCUCUACUAUUCUGUGAGCAUCAGGACUGUAGCGCUGUGUCACCACAUGAGAGUUGUUAAGCAGCCUUUCUGUGGAGGGUGGGAAUGA", "bound/input enrichment": "0.117 ratio"}
{"Sequence": "CACAGAGCAGCACCUACCCCCUCCUCCUUUCCACACCUGCAAACUCUUUUACUUGGGCUGCAUAGUUAGUGUAAUUACAUCUCAGCUUUUGAGGGCUCUGUGGCAAAUUCCCGGAUUAAA", "bound/input enrichment": "3.92 ratio"}
{"Sequence": "GAAACAUUUAAAUUUAAAGAAGCUGUUGUUCUAGGAAGCACGGACUUUCUAGAAGAUGAUAUAGAGAAAAUUGUAGAAGAACUGGGGAAAGAGUAUAAAGGCAAUGCCUACCAUCUGAUG", "bound/input enrichment": "1.34 ratio"}
{"Sequence": "AUCAAAUACUUUGGGGACAUCAUUAGUGUGGGACAGAGACUGUUGCAAGGAGCUCGGAUUUUAGGAAUUCCAGUUAUUGUAACAGAACAAUACCCCAAAGGACUUGGCAGCACCGUUCAA", "bound/input enrichment": "0.253 ratio"}
{"Sequence": "GUGUCCUGCUUUCAACUUAAAUCACUGAGGCAUCUCUACUAUUCUGUGAGCAUCAGGACUGUAGCGCUGUGUCACCACAGAUGAGAACAGAAGCAGCCUUUCUGUGGAGGGUGGGAAUGA", "bound/input enrichment": "0.267 ratio"}
{"Sequence": "UGUAGUUUCGCGGUUCAGGCUUUGUGUGUAGUUCACUUACGGUAUUAAAUUAUUAUUCUGCUUAGCUUAUAAUAAGGAUAAUUGCAUGAUUUAAGUAUACUGAAUGUUACUCUGAAACUU", "bound/input enrichment": "0.502 ratio"}
{"Sequence": "CGCUGGCCCAAGCUGAUGGACUCUGAUGGCCUCCAUCUCUCAGGCACGUUUGCCUUCUCUUAGUCCCUGUUUUCGGGAUGUUAUGAACAGUAUCAUGGUGGUUUGAAAGCACCAGCUUUG", "bound/input enrichment": "0.123 ratio"}
{"note": "Excerpt of the above (block 4):"}
{"Sequence": "UAAAUUAGGGCUGCCGUCCGUUCUCACUCCCUGGGCUGCGGAAAGCCAGAAGAUUUUAUCUAGCUUAAACCAGGCUGCUGGUGUUCCCUCUUUUUUUCCACGAGGGUGUUUUUGGCUGCA", "bound/input enrichment": "0.359 ratio"}
{"Sequence": "GUGACUGGUGUUAAGAUUUACCCUCAGCAAAGAAGUGCAGUAGUCACCAUAAUUCCAUCUGUGGUGAAUGCCAAUCAGAUUGUGGAGCUGGUCCCAGACCUCAGUUUAGACAUGGGAACU", "bound/input enrichment": "0.291 ratio"}
{"Sequence": "CCCUCCCCGGGCCACCCGCCCGCCCAAGCUCCCCGCCGAGAUCCAGGUUUCUUCUUAUUUCAUAGCAAGCCAGAACAAUGUUCUACGCACAUUUUGUCCUCAGUAAACGAGGGCCUCUGG", "bound/input enrichment": "4.57 ratio"}
{"Sequence": "GUGUCCUGCUUUCAACUUAAAUCACUGAGGCAUCUCUACUAUUCUGUGAGCAUCAGGACUGUAGCGCUGUGUCACCACAUGAGAGUUGUUAAGCAGCCUUUCUGUGGAGGGUGGGAAUGA", "bound/input enrichment": "0.117 ratio"}
{"Sequence": "CACAGAGCAGCACCUACCCCCUCCUCCUUUCCACACCUGCAAACUCUUUUACUUGGGCUGCAUAGUUAGUGUAAUUACAUCUCAGCUUUUGAGGGCUCUGUGGCAAAUUCCCGGAUUAAA", "bound/input enrichment": "3.92 ratio"}
{"Sequence": "GAAACAUUUAAAUUUAAAGAAGCUGUUGUUCUAGGAAGCACGGACUUUCUAGAAGAUGAUAUAGAGAAAAUUGUAGAAGAACUGGGGAAAGAGUAUAAAGGCAAUGCCUACCAUCUGAUG", "bound/input enrichment": "1.34 ratio"}
